Results gathered from unrelated publications.
Every numbered part comes from another study and shows a few of its results, in no order. Several values in a cell are separate wells, animals, samples, runs or records.
Chain of UniProt Q04759 (whole entry, looked up): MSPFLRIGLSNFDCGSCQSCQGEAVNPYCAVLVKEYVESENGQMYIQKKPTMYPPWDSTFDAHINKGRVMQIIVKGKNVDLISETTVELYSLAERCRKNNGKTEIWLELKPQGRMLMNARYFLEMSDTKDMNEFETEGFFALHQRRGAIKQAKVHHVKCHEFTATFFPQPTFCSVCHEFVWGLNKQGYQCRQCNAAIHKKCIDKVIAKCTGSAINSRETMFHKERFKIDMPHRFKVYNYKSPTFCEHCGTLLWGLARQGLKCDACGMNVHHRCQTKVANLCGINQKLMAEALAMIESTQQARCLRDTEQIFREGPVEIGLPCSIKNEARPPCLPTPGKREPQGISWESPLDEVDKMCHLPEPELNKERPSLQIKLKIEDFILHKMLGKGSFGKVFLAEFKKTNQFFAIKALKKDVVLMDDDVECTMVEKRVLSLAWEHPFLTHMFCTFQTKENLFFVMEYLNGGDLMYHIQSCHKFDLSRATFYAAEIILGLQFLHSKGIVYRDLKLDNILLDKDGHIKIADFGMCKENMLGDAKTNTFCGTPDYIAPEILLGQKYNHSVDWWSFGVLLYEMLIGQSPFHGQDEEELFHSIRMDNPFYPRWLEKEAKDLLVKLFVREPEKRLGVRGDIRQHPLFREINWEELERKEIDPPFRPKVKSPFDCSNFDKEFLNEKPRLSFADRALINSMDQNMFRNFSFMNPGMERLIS
Chain of UniProt Q8NE63 (whole entry, looked up): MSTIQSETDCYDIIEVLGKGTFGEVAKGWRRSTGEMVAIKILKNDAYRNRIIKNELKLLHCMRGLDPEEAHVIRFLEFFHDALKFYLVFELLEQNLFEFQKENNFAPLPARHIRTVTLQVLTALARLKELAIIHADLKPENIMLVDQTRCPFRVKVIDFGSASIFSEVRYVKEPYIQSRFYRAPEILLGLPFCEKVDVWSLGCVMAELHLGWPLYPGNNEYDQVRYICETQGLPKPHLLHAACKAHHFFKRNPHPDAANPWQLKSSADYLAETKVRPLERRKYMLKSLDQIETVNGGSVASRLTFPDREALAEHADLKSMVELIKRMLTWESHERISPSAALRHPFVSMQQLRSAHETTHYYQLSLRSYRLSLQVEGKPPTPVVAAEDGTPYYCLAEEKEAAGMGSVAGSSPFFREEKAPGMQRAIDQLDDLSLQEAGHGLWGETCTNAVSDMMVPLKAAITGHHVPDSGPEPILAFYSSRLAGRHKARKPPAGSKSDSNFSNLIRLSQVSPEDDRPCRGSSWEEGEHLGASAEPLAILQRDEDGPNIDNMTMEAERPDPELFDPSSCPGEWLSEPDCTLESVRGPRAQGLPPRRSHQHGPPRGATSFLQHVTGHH
Chain of UniProt Q15569 (whole entry, looked up): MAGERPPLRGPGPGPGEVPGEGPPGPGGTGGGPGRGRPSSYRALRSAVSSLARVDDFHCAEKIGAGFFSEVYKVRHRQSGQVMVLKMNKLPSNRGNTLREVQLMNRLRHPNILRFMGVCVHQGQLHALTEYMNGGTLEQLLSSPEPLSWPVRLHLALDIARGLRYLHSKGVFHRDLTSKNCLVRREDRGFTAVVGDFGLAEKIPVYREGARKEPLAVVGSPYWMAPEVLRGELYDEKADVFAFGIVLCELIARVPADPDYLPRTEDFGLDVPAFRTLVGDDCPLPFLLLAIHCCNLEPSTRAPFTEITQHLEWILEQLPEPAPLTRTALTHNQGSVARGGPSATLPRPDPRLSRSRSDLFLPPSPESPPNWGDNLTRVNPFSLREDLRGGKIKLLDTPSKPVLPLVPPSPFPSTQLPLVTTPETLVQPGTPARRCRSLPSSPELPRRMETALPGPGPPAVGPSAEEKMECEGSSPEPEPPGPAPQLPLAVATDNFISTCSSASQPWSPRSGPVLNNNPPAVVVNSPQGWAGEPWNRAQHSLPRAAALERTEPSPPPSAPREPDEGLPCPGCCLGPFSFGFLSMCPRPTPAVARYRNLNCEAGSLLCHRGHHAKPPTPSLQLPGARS
Chain of UniProt P06213 (whole entry, looked up): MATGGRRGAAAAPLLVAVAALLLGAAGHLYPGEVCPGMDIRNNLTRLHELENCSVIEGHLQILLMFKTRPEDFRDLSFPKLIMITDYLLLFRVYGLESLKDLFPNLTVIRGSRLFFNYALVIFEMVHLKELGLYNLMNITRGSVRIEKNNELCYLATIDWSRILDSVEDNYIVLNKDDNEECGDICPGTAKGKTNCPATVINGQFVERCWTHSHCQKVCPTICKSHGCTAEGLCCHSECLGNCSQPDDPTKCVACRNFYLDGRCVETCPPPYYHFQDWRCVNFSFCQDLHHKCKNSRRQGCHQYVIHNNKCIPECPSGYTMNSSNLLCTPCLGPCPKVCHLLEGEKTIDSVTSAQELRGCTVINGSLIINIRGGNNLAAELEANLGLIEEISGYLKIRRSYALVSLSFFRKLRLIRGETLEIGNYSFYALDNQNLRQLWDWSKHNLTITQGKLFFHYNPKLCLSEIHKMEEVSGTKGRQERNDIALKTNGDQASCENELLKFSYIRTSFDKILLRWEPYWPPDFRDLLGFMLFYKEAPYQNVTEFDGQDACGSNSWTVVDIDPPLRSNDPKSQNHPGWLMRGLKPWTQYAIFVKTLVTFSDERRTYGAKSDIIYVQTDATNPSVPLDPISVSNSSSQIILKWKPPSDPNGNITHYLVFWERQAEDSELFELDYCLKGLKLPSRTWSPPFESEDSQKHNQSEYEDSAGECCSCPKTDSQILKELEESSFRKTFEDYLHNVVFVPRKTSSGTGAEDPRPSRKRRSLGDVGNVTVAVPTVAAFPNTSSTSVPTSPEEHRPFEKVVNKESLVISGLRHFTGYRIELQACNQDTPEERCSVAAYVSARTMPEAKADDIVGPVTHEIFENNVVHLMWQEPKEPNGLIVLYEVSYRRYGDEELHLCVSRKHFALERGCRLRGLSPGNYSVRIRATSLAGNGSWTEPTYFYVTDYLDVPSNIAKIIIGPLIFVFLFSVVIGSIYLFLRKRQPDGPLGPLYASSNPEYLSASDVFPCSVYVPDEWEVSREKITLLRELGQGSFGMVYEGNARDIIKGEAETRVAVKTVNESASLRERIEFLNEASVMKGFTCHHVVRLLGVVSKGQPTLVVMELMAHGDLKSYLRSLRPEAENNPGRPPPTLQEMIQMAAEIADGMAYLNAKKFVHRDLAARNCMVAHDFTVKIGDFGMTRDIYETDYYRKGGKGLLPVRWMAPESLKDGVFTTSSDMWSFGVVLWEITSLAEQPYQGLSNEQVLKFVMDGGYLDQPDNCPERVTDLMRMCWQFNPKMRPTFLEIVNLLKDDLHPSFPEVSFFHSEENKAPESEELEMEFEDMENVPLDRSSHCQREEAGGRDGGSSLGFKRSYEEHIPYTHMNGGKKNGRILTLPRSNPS
Chain of UniProt P09769 (whole entry, looked up): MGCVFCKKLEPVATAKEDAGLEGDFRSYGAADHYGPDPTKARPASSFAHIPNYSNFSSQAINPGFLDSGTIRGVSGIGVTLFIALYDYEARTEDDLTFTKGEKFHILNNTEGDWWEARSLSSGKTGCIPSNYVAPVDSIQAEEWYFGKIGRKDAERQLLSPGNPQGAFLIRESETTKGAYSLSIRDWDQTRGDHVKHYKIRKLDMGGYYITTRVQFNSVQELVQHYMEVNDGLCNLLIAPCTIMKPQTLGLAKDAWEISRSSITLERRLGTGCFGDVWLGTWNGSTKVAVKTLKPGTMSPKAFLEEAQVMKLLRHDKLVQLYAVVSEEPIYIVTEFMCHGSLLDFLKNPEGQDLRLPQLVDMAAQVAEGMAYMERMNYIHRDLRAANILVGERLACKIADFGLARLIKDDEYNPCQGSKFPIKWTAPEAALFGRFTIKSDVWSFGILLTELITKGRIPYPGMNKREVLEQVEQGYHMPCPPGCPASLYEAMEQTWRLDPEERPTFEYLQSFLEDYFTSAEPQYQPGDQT
Chain of UniProt Q9NY57 (whole entry, looked up): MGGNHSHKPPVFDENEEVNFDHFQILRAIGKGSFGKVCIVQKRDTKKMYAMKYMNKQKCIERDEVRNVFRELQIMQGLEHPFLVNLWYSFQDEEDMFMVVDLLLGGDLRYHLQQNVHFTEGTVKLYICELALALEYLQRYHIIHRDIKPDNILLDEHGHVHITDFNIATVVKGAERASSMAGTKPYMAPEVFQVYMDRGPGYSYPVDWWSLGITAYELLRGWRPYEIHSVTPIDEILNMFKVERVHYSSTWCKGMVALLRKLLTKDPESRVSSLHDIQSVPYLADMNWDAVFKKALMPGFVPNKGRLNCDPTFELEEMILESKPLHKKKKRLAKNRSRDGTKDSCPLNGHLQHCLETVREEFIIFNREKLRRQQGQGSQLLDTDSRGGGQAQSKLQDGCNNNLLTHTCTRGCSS

Series 1
Compound: COc1cc(C(=O)OCCCN2CCCN(CCCOC(=O)c3cc(OC)c(OC)c(OC)c3)CC2)cc(OC)c1OC
Technique: von Frey test
read-out	species	route	dose	time	setting	paw withdrawal threshold
mechanical pain	mouse, STZ diabetic neuropathy	intravenous	30 mg/kg	3 h post-dose	first injection, day 8	0.4 g and 0.17 g and 0.29 g and 0.13 g and 0.06 g
–	mouse, CFA inflammatory pain	subcutaneous	10 mg/kg	3 h post-dose	second injection, day 3	0.23 g and 0.36 g and 0.13 g and 0.32 g
mechanical pain	mouse, STZ diabetic neuropathy	intravenous	30 mg/kg	24 h post-dose	third injection	0.27 g and 0.29 g and 0.11 g and 0.23 g and 0.32 g
–	mouse, CFA inflammatory pain	intraplantar	10 µg	1 h post-dose	day 3 after CFA	0.51 g and 0.65 g and 0.32 g and 0.75 g and 0.44 g
–	mouse, CFA inflammatory pain	intravenous	dose not given	24 h post-dose	first injection, day 1	0.23 g and 0.17 g and 0.32 g and 0.19 g
mechanical pain	mouse, STZ diabetic neuropathy	intravenous	30 mg/kg	24 h post-dose	first injection, day 8	0.32 g and 0.1 g and 0.04 g and 0.12 g and 0.02 g
–	mouse, CFA inflammatory pain	intraplantar	10 µg	5 h post-dose	day 3 after CFA	0.27 g and 0.44 g and 0.23 g and 0.17 g and 0.29 g

Series 2
Target: Mitogen-activated protein kinase kinase kinase 20 (MAP3K20, Homo sapiens, UniProt Q9NYL2)
Chain of UniProt Q9NYL2 (whole entry, looked up): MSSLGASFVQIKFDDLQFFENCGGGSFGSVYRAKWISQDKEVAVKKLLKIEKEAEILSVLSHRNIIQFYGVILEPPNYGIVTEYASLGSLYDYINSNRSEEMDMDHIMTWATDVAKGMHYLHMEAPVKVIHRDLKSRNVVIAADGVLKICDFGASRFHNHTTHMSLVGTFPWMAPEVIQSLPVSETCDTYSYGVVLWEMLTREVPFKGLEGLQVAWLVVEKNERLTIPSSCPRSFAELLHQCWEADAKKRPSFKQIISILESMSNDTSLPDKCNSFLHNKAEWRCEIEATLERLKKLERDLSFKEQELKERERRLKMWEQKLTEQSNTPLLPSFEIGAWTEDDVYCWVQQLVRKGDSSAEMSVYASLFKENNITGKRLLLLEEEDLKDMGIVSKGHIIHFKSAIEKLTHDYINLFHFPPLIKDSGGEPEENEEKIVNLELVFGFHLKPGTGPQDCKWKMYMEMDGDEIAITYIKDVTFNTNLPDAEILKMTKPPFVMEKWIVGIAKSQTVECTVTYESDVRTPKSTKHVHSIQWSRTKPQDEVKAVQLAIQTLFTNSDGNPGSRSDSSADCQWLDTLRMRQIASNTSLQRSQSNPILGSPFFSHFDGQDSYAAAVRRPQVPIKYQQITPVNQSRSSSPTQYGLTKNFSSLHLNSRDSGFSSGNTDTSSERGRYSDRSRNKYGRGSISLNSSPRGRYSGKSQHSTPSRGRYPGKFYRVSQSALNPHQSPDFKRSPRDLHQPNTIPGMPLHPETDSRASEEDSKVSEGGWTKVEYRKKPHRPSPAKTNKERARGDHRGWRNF
Read-out: enzyme activity
Mode: inhibitor
Tested at: 0.5 µM
Relative to: control
Structure (SMILES)	remaining activity
O=C1Nc2ccccc2/C1=C\c1c(Cl)[nH]c2ccccc12	99.2%
Oc1cccc(-c2nc(N3CCOCC3)c3oc4ncccc4c3n2)c1	96.2%
Cc1ccc(S(=O)(=O)/C=C/C#N)cc1	94.7%
O=C1Nc2ccc(Br)cc2/C1=C/c1cc2c([nH]1)CCCC2	87.7%
COc1ccc2c(c1)c(C1=C(c3c[nH]c4ccccc34)C(=O)NC1=O)cn2CCCN(C)C	95.9%
CCCNC(=O)Nc1ccc(Oc2ncnc3cc(OC)c(OC)cc23)cc1Cl	103%

Series 3
SMILES: CN([C@@H]1CCc2c(CC(=O)O)c3cc(S(C)(=O)=O)ccc3n2C1)S(=O)(=O)c1ccc(F)cc1
Read-out: cell-free assay
Technique: competition with immobilised ligand
Tested at: 1 µM
target	remaining binding [%]
Activin receptor type-1-like (ACVRL1, Homo sapiens, UniProt P37023)	100
Dual specificity testis-specific protein kinase 1 (TESK1, Homo sapiens, UniProt Q15569)	73
Homeodomain-interacting protein kinase 4 (HIPK4, Homo sapiens, UniProt Q8NE63)	100
Tyrosine-protein kinase Fgr (FGR, Homo sapiens, UniProt P09769)	84
Phosphatidylinositol 3-kinase C2 domain-containing subunit gamma (PIK3C2G, Homo sapiens, UniProt O75747)	82
Cyclin-dependent kinase 18 (CDK18, Homo sapiens, UniProt Q07002)	100
Calcium/calmodulin-dependent protein kinase type 1G (CAMK1G, Homo sapiens, UniProt Q96NX5)	100
Cyclin-dependent kinase-like 2 (CDKL2, Homo sapiens, UniProt Q92772)	100
Mitogen-activated protein kinase 8 (MAPK8, Homo sapiens, UniProt P45983)	90
Mitogen-activated protein kinase kinase kinase 20 (MAP3K20, Homo sapiens, UniProt Q9NYL2)	80
Insulin receptor (INSR, Homo sapiens, UniProt P06213)	100
Serine/threonine-protein kinase 32B (STK32B, Homo sapiens, UniProt Q9NY57)	100
Protein kinase C theta type (PRKCQ, Homo sapiens, UniProt Q04759)	78
Mitogen-activated protein kinase kinase kinase 12 (MAP3K12, Homo sapiens, UniProt Q12852)	100
Myosin light chain kinase (MYLK3, Homo sapiens, UniProt Q32MK0)	100
Casein kinase I isoform gamma-3 (CSNK1G3, Homo sapiens, UniProt Q9Y6M4)	100
TGF-beta receptor type-1 (TGFBR1, Homo sapiens, UniProt P36897)	100

Single results of other studies
Tested at: 100 µM
Time: 60 h
SMILES	cell line	viability [%]
CN(C)CCN(Cc1ccccc1)c1ccccn1	HaCaT	141
C=CC1=C(C(=O)O)N2C(=O)[C@@H](NC(=O)/C(=N\O)c3csc(N)n3)[C@H]2SC1	HaCaT	134
Nc1nc(O)c2ncn(COC(CO)CO)c2n1	HaCaT	135
Cc1nc(C)c(C)nc1C	A-375	98.1

For quick reference, copied from above (series 3):
target	remaining binding [%]
Myosin light chain kinase (MYLK3, Homo sapiens, UniProt Q32MK0)	100
Tyrosine-protein kinase Fgr (FGR, Homo sapiens, UniProt P09769)	84
Homeodomain-interacting protein kinase 4 (HIPK4, Homo sapiens, UniProt Q8NE63)	100
TGF-beta receptor type-1 (TGFBR1, Homo sapiens, UniProt P36897)	100
Phosphatidylinositol 3-kinase C2 domain-containing subunit gamma (PIK3C2G, Homo sapiens, UniProt O75747)	82
Dual specificity testis-specific protein kinase 1 (TESK1, Homo sapiens, UniProt Q15569)	73
